Measurements of several laboratories.
Lines come from different studies, so protocols differ. ± gives the spread as reported.
Sequence of UniProt Q80W57 (whole entry, looked up): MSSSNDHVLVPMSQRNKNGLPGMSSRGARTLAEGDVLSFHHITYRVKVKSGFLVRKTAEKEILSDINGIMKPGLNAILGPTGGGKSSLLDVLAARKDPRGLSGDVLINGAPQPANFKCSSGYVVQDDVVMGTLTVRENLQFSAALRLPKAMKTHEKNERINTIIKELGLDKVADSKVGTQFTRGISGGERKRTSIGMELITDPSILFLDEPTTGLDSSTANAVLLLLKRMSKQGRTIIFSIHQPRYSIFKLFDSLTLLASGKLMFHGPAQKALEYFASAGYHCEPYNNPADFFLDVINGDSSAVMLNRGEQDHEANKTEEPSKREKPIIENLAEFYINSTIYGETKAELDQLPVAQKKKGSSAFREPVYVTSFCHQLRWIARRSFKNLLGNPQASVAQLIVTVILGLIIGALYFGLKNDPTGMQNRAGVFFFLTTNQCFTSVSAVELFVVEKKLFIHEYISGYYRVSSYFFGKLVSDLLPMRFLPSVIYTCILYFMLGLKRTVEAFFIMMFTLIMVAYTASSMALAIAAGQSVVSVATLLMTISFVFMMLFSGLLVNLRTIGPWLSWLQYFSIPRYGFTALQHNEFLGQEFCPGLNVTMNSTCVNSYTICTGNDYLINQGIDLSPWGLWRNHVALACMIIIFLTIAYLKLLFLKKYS
Sequence of UniProt Q5S006 (whole entry, looked up): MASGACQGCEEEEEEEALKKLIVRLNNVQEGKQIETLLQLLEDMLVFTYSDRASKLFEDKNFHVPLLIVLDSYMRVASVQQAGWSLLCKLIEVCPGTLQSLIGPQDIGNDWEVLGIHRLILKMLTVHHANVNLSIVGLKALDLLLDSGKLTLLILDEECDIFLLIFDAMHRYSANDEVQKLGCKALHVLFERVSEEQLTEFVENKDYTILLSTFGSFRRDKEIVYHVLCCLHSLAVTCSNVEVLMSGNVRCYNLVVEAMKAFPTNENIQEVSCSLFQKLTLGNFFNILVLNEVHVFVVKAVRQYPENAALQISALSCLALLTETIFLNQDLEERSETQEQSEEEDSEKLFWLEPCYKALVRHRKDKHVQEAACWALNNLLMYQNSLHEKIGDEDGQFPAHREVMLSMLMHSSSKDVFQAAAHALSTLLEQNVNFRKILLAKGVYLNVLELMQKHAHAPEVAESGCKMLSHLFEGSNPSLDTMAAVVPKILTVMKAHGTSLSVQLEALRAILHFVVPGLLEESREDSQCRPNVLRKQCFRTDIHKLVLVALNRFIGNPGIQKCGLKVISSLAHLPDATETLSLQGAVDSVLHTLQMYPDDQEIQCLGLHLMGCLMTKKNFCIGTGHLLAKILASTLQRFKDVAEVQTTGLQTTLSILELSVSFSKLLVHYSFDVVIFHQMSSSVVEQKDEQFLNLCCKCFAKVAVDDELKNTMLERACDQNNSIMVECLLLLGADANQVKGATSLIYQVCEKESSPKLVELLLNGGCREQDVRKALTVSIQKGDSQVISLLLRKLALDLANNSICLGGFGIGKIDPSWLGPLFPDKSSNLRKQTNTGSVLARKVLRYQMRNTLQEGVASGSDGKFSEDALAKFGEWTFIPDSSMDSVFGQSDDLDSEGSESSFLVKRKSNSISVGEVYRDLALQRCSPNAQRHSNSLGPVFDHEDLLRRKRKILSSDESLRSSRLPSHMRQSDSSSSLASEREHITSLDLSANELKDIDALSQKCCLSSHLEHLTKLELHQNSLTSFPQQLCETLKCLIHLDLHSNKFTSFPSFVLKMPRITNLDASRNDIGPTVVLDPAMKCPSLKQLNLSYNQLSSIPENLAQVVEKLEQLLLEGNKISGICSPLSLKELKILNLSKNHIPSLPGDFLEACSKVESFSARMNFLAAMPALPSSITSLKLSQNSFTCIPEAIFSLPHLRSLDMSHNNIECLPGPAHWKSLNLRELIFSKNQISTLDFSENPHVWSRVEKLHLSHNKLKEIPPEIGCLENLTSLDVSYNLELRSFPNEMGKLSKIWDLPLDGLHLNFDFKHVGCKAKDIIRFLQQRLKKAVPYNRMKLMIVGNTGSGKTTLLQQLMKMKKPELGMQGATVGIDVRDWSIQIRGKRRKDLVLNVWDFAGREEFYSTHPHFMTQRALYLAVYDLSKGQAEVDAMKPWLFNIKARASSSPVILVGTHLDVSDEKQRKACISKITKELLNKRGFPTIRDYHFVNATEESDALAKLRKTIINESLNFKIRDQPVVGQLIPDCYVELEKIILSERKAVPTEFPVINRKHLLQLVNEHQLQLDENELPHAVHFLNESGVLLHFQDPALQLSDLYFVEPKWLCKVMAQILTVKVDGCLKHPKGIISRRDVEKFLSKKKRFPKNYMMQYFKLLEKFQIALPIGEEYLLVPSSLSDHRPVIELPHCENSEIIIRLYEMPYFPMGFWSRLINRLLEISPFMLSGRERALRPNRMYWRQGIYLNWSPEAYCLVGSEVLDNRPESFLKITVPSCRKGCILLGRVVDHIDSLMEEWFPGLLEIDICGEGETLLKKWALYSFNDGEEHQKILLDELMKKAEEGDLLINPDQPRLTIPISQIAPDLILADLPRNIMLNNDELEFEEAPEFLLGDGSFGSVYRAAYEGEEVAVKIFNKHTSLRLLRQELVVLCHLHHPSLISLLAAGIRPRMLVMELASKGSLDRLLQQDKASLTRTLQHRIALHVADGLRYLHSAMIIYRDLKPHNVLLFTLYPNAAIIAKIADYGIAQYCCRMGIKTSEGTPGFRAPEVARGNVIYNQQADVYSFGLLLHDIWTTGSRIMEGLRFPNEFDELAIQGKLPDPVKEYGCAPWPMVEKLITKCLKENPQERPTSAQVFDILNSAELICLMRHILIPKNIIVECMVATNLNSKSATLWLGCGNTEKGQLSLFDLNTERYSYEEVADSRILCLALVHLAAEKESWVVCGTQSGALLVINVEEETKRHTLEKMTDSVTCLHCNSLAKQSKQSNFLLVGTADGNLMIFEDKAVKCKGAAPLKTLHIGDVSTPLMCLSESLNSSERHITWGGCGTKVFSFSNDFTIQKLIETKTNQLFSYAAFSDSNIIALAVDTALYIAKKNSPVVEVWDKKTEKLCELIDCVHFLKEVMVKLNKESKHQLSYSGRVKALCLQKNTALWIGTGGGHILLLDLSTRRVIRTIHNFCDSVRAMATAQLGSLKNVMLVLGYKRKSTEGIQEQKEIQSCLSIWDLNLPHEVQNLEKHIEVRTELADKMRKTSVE

SMILES	tested on	test	test system	setting	scale	endpoint	result
CC(C)(Oc1ccc(C(=O)c2ccc(Cl)cc2)cc1)C(=O)O		shake-flask	soybean oil	37 °C		thermodynamic solubility	0.8 ± 0.05 mg/g
OCc1ccccc1	cysteine peptide Ac-RFAACAA-COOH	DPRA RapidFire-MS/MS		24 h, pH 7.5, added: 5.0 µM cysteine peptide		peptide depletion	inactive
Cn1cc(-c2cn3nccc3c(-c3cnn([C@]4(CC#N)C[C@@H](C#N)C4)c3)n2)cn1			healthy Japanese human, plasma	400 mg once daily, day 1, multiple dose, fed, geometric mean		dose-normalized Cmax	1.7 ng/mL/mg
Nc1nc(N)c2nc(CNc3ccc(C(=O)N[C@@H](CCC(=O)O)C(=O)O)cc3)cnc2n1			female Lewis rats, plasma	subcutaneous, 500 nmol/kg of parent drug		terminal half-life	~1.11 h
Cc1cc(Nc2cc3ncccc3c(N[C@@H]3C[C@H]4CC[C@@H](C3)N4CCC#N)n2)n[nH]1			beagle dog, female, plasma	oral, 10 mg/kg/day, last day of 4 weeks		Cmax	10.4 ng/mL
C[C@H](CS)C(=O)N1CCC[C@H]1C(=O)O			male Hartley guinea pig, anaesthetized	intravenous infusion, 30 mg/kg, 10 min infusion	reference: baseline	QTc change	-6 ± 1.9%
N[C@@H](CC(=O)N1CCn2c(nnc2C(F)(F)F)C1)Cc1cc(F)c(F)cc1F			healthy Korean subjects, plasma	oral, 100 mg single dose, ABCB1 G2677T/A GG		AUC(0-2 h)	452 ± 196 ng·h/mL
CC(C)[C@H](NC(=O)[C@@]1(Cc2ccccc2)CCN1C(=O)OCc1ccccc1)C(N)=O	HEL	microscopic cell morphology				minimum cytotoxic concentration	> 100 µM
Nc1ncnc2c1ncn2[C@@H]1O[C@H](COP(=O)(O)OP(=O)(O)O)[C@@H](O)[C@H]1O	ATP1A1 (Sus scrofa, UniProt P05024)	binding, radioligand binding	pig membranes	pH 7.7, 0 °C, ionic strength 378 mM, added: NaCl 319 mM		Kd	3.35 ± 0.054 µM
CS(=O)(=O)n1cc2c(n1)CN([C@H]1CO[C@H](c3cc(F)ccc3F)[C@@H](N)C1)C2			healthy male human, plasma	oral, 400 mg single, fasted, geometric mean		concentration at 168 h	174 nM
Cc1cc(Nc2ncc(Cl)c(Nc3ccccc3S(=O)(=O)C(C)C)n2)c(OC(C)C)cc1C1CCNCC1		item: unbound drug	patients, plasma	oral, 750 or 450 mg/day, geometric mean		AUC(tau) at steady state	0.239 µM·h
COc1cnc(NS(=O)(=O)c2ccc(NC(=O)/C=C\c3ccc(O)c(O)c3)cc2)nc1			n-octanol/PBS	pH 7.4		log P	> 0.5
NC(=O)[C@H](Cc1ccccc1)NC(=O)[C@@]1(Cc2ccccc2)CCN1C(=O)OCc1ccccc1	HEL	microscopic cell morphology				minimum cytotoxic concentration	100 µM
Cc1nc2cccc(OCC(C)(C)C(=O)NC(C)C)c2c(N)c1C(=O)O			Sprague-Dawley rat (both sexes), plasma	dietary, 30 to 100 mg/kg/day, day 90		Tmax range	1.5 to 7.5 h
N[C@@H](CC(=O)N1CCn2c(nnc2C(F)(F)F)C1)Cc1cc(F)c(F)cc1F			adult UCB transplant recipients, plasma	oral, 600 mg four times, observed median		log AUC(0-72h)	9.86 ng·h/mL
Nc1ncn([C@H]2C[C@H](O)[C@@H](CO)O2)c(=O)n1			male CD-1 mice, plasma	oral, 167 mg/kg THU + 0.2 mg/kg, day 58		AUC(0-180)	1.14 µM·h
CCc1cn([C@@H]2O[C@H](CO)[C@@H](O)[C@H]2O)c2ncnc(C)c12		metabolic stability	mouse, liver microsomes	0 h		compound remaining	100%
CCCCC[C@H](O)CC(=O)CCc1ccc(O)c(OC)c1			Sprague Dawley rat, male, small intestine site 4 contents	oral, 0.3 g/kg TU-100, 2 h, no β-glucuronidase treatment	reference: ingested amount	recovery	2.01%
Nc1ncnc2c1ncn2[C@@H]1O[C@H](COP(=O)(O)OP(=O)(O)O)[C@@H](O)[C@H]1O	Lrrk2 (Mus musculus, UniProt Q5S006)	enzyme activity, inhibitor, radiometric		Ki,eb, added: LRRKtide substrate varied		Ki	200 ± 20 µM
O=C(Nc1ccc([N+](=O)[O-])cc1Cl)c1cc(Cl)ccc1O		shake-flask	PEG400	37 °C		thermodynamic solubility	61.7 ± 1.72 mg/g
CCCCOC(=O)N1CCN(C(=O)[C@H](CP(=O)(O)O)NC(=O)c2cc(N3CC[C@H](OC)C3)nc(-c3ccccc3)n2)CC1			healthy human, plasma	subcutaneous, 4 mg, added: rifampin 600 mg i.v.	geometric mean	Vd/F	35.5 L
O=c1c(-c2ccccc2)c1-c1ccccc1	cysteine peptide Ac-RFAACAA-COOH	DPRA RapidFire-MS/MS		24 h, pH 7.5, added: 5.0 µM cysteine peptide		maximal peptide depletion	-43.8%
COc1ccc(Cl)cc1C(=O)NCCc1ccc(S(=O)(=O)NC(=O)NC2CCCCC2)cc1		shake-flask	polysorbate 80	37 °C		thermodynamic solubility	10.5 ± 0.22 mg/g
CN1C(=O)C2(Nc3ccccc3C(=O)N2Cc2ccco2)c2cc(Br)ccc21 (centres unmarked)		shake flask	aqueous buffer	pH 7.4		logD	3
O=C(O)c1cc(/N=N/c2ccc(S(=O)(=O)Nc3ccccn3)cc2)ccc1O	Abcg2 (Rattus norvegicus, UniProt Q80W57)		male Sprague-Dawley rat, plasma	oral, 2 mg/kg		half-life	2.3 h
COc1ccc(C)c2sc(N(Cc3cccnc3)C(=O)c3ccc(C#N)cc3)nc12	Trypanosoma cruzi	trypomastigote viability	Tulahuen	87 µM, 48 h, solid sample		activity	87%

Some of these lines once more:
SMILES	tested on	test	test system	setting	scale	endpoint	result
COc1ccc(Cl)cc1C(=O)NCCc1ccc(S(=O)(=O)NC(=O)NC2CCCCC2)cc1		shake-flask	polysorbate 80	37 °C		thermodynamic solubility	10.5 ± 0.22 mg/g
CN1C(=O)C2(Nc3ccccc3C(=O)N2Cc2ccco2)c2cc(Br)ccc21 (centres unmarked)		shake flask	aqueous buffer	pH 7.4		logD	3
O=C(O)c1cc(/N=N/c2ccc(S(=O)(=O)Nc3ccccn3)cc2)ccc1O	Abcg2 (Rattus norvegicus, UniProt Q80W57)		male Sprague-Dawley rat, plasma	oral, 2 mg/kg		half-life	2.3 h
